Results pooled from the literature.
Numbers after ± are the reported error.
Spike glycoprotein: Spike glycoprotein (Severe acute respiratory syndrome coronavirus 2, UniProt P0DTC2)
UniProt Q9UGM1, sequence (whole entry, looked up): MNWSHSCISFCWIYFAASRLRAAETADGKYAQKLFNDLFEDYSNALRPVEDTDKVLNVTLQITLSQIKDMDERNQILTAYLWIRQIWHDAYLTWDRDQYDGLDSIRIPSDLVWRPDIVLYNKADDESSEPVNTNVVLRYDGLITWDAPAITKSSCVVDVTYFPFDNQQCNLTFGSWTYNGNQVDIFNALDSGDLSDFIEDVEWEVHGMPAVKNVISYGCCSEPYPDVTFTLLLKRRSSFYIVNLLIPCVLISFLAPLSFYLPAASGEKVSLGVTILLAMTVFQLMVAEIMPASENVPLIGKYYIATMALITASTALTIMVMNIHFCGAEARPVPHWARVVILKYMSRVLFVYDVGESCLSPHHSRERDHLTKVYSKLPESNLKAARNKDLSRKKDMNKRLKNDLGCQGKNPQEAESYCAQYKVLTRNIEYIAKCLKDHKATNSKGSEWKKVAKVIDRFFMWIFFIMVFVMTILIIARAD
UniProt P43681, sequence (whole entry, looked up): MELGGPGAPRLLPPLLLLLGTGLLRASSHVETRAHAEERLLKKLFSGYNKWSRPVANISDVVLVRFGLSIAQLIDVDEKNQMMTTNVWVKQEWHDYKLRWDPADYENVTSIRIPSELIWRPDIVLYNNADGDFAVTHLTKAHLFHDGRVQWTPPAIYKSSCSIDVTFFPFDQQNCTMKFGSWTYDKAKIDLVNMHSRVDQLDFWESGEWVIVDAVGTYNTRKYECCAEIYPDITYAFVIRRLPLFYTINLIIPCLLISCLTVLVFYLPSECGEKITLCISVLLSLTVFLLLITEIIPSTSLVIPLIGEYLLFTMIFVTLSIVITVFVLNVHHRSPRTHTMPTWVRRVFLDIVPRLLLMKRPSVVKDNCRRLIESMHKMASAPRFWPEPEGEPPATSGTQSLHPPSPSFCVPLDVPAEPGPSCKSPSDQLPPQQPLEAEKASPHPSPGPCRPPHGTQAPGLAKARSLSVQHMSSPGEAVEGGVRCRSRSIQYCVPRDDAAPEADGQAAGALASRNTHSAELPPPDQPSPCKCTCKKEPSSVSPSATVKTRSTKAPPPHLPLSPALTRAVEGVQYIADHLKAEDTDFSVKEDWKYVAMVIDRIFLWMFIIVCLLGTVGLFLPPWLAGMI
UniProt P17787, sequence (whole entry, looked up): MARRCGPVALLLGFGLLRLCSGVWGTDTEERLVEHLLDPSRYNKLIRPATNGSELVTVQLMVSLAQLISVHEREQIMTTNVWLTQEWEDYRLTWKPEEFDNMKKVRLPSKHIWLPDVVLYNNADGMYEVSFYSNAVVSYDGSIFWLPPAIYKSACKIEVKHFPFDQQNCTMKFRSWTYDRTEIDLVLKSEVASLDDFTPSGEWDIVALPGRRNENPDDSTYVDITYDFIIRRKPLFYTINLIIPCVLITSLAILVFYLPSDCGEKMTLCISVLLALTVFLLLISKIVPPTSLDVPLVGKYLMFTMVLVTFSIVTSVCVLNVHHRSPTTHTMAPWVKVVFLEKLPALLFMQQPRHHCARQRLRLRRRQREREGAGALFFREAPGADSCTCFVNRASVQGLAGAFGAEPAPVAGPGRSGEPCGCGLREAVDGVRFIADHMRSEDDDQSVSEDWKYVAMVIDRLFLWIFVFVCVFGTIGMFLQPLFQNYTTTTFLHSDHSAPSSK
UniProt Q9GZZ6, sequence (whole entry, looked up): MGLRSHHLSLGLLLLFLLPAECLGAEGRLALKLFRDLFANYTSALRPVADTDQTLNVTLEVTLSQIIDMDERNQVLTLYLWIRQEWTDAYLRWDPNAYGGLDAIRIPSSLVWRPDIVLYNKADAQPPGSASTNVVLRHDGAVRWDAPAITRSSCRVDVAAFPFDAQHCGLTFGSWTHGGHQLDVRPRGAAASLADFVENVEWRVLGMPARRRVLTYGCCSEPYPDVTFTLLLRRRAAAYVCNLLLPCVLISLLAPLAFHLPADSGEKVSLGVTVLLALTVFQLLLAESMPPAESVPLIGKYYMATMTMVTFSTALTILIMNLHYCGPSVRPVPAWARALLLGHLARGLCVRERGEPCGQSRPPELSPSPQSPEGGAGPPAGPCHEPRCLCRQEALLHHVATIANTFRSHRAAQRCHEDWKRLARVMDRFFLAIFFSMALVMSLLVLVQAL
UniProt Q6Q1S2, sequence (whole entry, looked up): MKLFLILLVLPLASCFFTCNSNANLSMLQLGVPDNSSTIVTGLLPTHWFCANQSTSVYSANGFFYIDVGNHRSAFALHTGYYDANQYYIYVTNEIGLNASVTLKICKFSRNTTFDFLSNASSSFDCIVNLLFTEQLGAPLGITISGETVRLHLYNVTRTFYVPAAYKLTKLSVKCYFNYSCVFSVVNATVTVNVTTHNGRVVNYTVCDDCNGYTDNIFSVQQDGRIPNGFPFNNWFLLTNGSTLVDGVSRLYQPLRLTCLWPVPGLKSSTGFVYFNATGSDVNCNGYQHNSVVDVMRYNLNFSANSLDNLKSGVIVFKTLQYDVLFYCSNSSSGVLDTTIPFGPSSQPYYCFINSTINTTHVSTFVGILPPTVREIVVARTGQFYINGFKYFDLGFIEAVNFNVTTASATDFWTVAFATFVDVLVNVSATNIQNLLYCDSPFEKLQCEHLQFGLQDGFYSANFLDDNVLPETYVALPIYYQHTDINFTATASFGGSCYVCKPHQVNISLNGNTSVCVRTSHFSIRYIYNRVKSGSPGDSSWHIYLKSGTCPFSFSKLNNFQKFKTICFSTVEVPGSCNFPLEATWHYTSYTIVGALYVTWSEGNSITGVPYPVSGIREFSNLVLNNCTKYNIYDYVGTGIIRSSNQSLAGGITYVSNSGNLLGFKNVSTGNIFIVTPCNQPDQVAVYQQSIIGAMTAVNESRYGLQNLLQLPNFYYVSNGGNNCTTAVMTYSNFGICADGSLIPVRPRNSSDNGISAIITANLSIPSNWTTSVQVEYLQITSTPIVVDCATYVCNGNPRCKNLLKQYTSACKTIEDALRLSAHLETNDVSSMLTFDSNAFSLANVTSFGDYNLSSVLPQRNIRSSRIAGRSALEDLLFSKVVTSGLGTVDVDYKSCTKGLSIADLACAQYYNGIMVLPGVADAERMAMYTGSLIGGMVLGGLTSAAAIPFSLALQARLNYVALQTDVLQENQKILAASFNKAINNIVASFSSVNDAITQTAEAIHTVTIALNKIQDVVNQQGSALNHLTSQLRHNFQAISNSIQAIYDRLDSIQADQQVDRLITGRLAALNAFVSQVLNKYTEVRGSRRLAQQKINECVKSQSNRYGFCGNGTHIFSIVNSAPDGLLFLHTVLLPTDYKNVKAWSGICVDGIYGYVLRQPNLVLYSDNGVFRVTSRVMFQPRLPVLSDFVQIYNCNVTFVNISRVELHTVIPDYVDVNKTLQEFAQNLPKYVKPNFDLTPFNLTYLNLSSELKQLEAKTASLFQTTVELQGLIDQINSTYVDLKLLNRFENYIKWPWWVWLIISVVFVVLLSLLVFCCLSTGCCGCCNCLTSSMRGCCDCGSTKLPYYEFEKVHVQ

COc1ccc2ccccc2c1/C=N/NC(=O)c1ccc(O)c(O)c1  IC50 (Gag-Pol polyprotein, reverse transcriptase A502G (gag-pol, Human immunodeficiency virus type 1 group M subtype B, UniProt P04585, A1089G); RNase H activity, inhibitor; HIV-1): 13700 ± 5200 nM
CNC(=O)[C@@H](NC(=O)[C@H](CC(C)C)[C@H](O)C(=O)NO)C(C)(C)C  remaining fibrinogen Bβ chain (human fibrinogen; SDS-PAGE; Daboia russelii; concentration not given, unit not given, added: KL venom; reference: untreated fibrinogen): 0.816
O=C1C[C@@H]2OCC=C3CN4CC[C@]56c7ccccc7N1[C@H]5[C@H]2[C@H]3C[C@H]46  IC50 (Neuronal acetylcholine receptor; alpha9/alpha10 (Homo sapiens, UniProt Q9GZZ6+Q9UGM1); inhibitor): 4110 ± 1400 nM
CCOP(=O)(OCC)Oc1ccc([N+](=O)[O-])cc1  IC50 (rat liver carboxylesterase; enzyme activity, inhibitor; rat, postnatal day 12, liver homogenate; added: p-nitrophenyl valerate): 0.14 nM
O=C(/C=C/c1ccc(O)c(O)c1/C=C/c1ccc(O)c(O)c1)O[C@H](Cc1ccc(O)c(O)c1)C(=O)O  Kd (Spike glycoprotein; binding): 27100 nM
CCN(CC)c1nc(C)cc(OP(=S)(OC)OC)n1  IC50 (uncharacterized protein (Anopheles coluzzii, UniProt A0A6E8VQK1); α-naphthyl acetate hydrolysis, inhibitor; Sf9 cell homogenate; 10 min preincubation): > 450000 nM
C[C@H](Cn1cnc2c(N)ncnc21)OCP(=O)(O)O  IC50 (Gag-Pol polyprotein, reverse transcriptase (gag-pol, Human immunodeficiency virus type 1 group M subtype B, UniProt P04585, K653A); inhibitor; HIV-1): 1635 ± 1.16 nM
O=C(O[C@@H]1Cc2c(O)cc(O)cc2O[C@@H]1c1cc(O)c(O)c(O)c1)c1cc(O)c(O)c(O)c1  Kd (Spike glycoprotein; binding): 1430 nM
Cn1cnc(Cn2c(=O)[nH]/c(=N\c3cc4cn(C)nc4cc3Cl)n(Cc3cc(F)c(F)cc3F)c2=O)n1  renal clearance (human, severe renal impairment, plasma; oral, 375 mg single dose): 0.542 mL/min
C=C1CCCC2=NC[C@H](C)[C@@H](C)C[C@@]23CCC(C(=O)O)=C[C@@H]3[C@@H]2O[C@]3(C[C@H]4CCC[C@@]5(CC[C@@]6(O[C@@H](CC[C@@]6(C)O)C1)O5)O4)C[C@@H](C)[C@@H](O)[C@H]2O3  IC50 (Neuronal acetylcholine receptor; alpha4/beta2 (Homo sapiens, UniProt P17787+P43681); ion current, two-electrode voltage clamp; oocytes): 30.4 nM
CCN1C[C@H](C)n2c(c(O)c3c(=O)n(Cc4ccc(F)c(Cl)c4)nc(C(=O)NC)c32)C1=O  IC50 (Gag-Pol polyprotein, integrase (gag-pol, Human immunodeficiency virus 1, UniProt P12497, N1302H); concerted integration, inhibitor, measured: donor-donor products; 3 h, 37 °C): 26 ± 8 nM
COP(=O)(OC)Oc1ccc([N+](=O)[O-])cc1  IC50 (rat liver carboxylesterase; enzyme activity, inhibitor; rat, postnatal day 1, liver homogenate; added: p-nitrophenyl valerate): 0.6 nM
CC1Oc2cc3c(-c4c(O)cc(O)c5c(O)c6c(cc45)OC(C)C(C)C6=O)c(O)cc(O)c3c(O)c2C(=O)C1C (stereo not drawn)  IC50 (Replicase polyprotein 1ab, 3C-like proteinase (Feline coronavirus, UniProt Q98VG9); protease activity, inhibitor; added: 6 µM fluorogenic substrate): 6360 ± 2150 nM
Cc1cn([C@H]2C[C@H](N=[N+]=[N-])[C@@H](CO[P@](=O)(O)O[P@](=O)(O)OP(=O)(O)O)O2)c(=O)[nH]c1=O  IC50 (Gag-Pol polyprotein, reverse transcriptase (gag-pol, Human immunodeficiency virus type 1 group M subtype B, UniProt P04585, K653R); inhibitor; HIV-1): 250 nM
CC[C@H](C)[C@H](NC(=O)[C@H](CC(=O)O)NC(=O)[C@H](CO)NC(=O)[C@H](CC(=O)O)NC(=O)[C@H](CCCCN)NC(=O)[C@H](CCC(N)=O)NC(=O)[C@H](Cc1ccc(O)cc1)NC(=O)[C@H](CCC(=O)O)NC(=O)[C@H](CC(C)C)NC(=O)[C@@H](NC(=O)[C@H](CCC(=O)O)NC(=O)[C@H](CCSC)NC(=O)[C@@H](NC(=O)[C@H](CC(C)C)NC(=O)[C@H](CO)NC(=O)[C@H](CCC(=O)O)NC(=O)[C@H](CC(C)C)NC(=O)[C@H](CC(C)C)NC(=O)[C@H](CCCCN)NC(=O)[C@H](Cc1ccccc1)NC(=O)[C@H](CCC(=O)O)NC(=O)[C@H](CCC(=O)O)NC(=O)[C@H](Cc1ccc(O)cc1)NC(=O)[C@H](CC(C)C)NC(=O)[C@H](CC(C)C)NC(=O)[C@@H](NC(=O)[C@H](CCCCN)NC(=O)[C@@H](N)CC(C)C)C(C)C)[C@@H](C)CC)[C@@H](C)CC)C(=O)N[C@@H](CCCCN)C(=O)N[C@@H](CCC(=O)O)C(=O)N[C@@H](CC(N)=O)C(=O)N[C@@H](C)C(=O)N[C@@H](CCC(=O)O)C(=O)N[C@@H](CC(=O)O)C(=O)N[C@H](C(=O)N[C@@H](CCCCN)C(=O)O)[C@@H](C)O  IC50 (Spike glycoprotein (S, Human coronavirus NL63, UniProt Q6Q1S2); cell-based): > 5000 nM
Nc1ncnc2c([C@@H]3N[C@H](CO)[C@@H](O)[C@H]3O)c[nH]c12  inhibition (Yellow fever virus; viral replication; Vero 76, 17D; 0.9 µM): 0%
Cc1cn([C@H]2C=C[C@@H](COP(=O)(O)OP(=O)(O)OP(=O)(O)O)O2)c(=O)[nH]c1=O  IC50 (Gag-Pol polyprotein, reverse transcriptase (gag-pol, Human immunodeficiency virus type 1 group M subtype B, UniProt P04585, K652A); inhibitor; HIV-1): 15700 ± 1170 nM
CC[C@H](C)[C@H](NC(=O)[C@H](CC(C)C)NC(=O)[C@H](Cc1c[nH]c2ccccc12)NC(=O)[C@H](CCC(N)=O)NC(=O)[C@@H](NC(=O)[C@H](Cc1ccccc1)NC(=O)[C@H](C)NC(=O)[C@H](CCCCNC(=O)COCCOCCNC(=O)COCCOCCNC(=O)CC[C@H](NC(=O)CCCCCCCCCCCCCCCCCCC(=O)O)C(=O)O)NC(=O)[C@H](CCC(N)=O)NC(=O)[C@H](C)NC(=O)[C@@H](NC(=O)[C@H](CCCCN)NC(=O)[C@H](CC(=O)O)NC(=O)[C@H](CC(C)C)NC(=O)C(C)(C)NC(=O)[C@@H](NC(=O)[C@H](CO)NC(=O)[C@H](Cc1ccc(O)cc1)NC(=O)[C@H](CC(=O)O)NC(=O)[C@H](CO)NC(=O)[C@@H](NC(=O)[C@H](Cc1ccccc1)NC(=O)[C@@H](NC(=O)CNC(=O)[C@H](CCC(=O)O)NC(=O)C(C)(C)NC(=O)[C@@H](N)Cc1ccc(O)cc1)[C@@H](C)O)[C@@H](C)O)[C@@H](C)CC)[C@@H](C)CC)C(C)C)C(=O)N[C@@H](C)C(=O)NCC(=O)NCC(=O)N1CCC[C@H]1C(=O)N[C@@H](CO)C(=O)N[C@@H](CO)C(=O)NCC(=O)N[C@@H](C)C(=O)N1CCC[C@H]1C(=O)N1CCC[C@H]1C(=O)N1CCC[C@H]1C(=O)N[C@@H](CO)C(N)=O  systolic blood pressure change (healthy subjects, single ascending dose; 5.0 mg, day 29; reference: baseline): -0.83 mmHg

For quick reference, copied from above:
C=C1CCCC2=NC[C@H](C)[C@@H](C)C[C@@]23CCC(C(=O)O)=C[C@@H]3[C@@H]2O[C@]3(C[C@H]4CCC[C@@]5(CC[C@@]6(O[C@@H](CC[C@@]6(C)O)C1)O5)O4)C[C@@H](C)[C@@H](O)[C@H]2O3  IC50 (Neuronal acetylcholine receptor; alpha4/beta2 (Homo sapiens, UniProt P17787+P43681); ion current, two-electrode voltage clamp; oocytes): 30.4 nM
CCN1C[C@H](C)n2c(c(O)c3c(=O)n(Cc4ccc(F)c(Cl)c4)nc(C(=O)NC)c32)C1=O  IC50 (Gag-Pol polyprotein, integrase (gag-pol, Human immunodeficiency virus 1, UniProt P12497, N1302H); concerted integration, inhibitor, measured: donor-donor products; 3 h, 37 °C): 26 ± 8 nM
